# Measurements collected from several papers.
# Parts stem from different laboratories: compare values within a part only.
# UniProt P11388, sequence (whole entry, looked up): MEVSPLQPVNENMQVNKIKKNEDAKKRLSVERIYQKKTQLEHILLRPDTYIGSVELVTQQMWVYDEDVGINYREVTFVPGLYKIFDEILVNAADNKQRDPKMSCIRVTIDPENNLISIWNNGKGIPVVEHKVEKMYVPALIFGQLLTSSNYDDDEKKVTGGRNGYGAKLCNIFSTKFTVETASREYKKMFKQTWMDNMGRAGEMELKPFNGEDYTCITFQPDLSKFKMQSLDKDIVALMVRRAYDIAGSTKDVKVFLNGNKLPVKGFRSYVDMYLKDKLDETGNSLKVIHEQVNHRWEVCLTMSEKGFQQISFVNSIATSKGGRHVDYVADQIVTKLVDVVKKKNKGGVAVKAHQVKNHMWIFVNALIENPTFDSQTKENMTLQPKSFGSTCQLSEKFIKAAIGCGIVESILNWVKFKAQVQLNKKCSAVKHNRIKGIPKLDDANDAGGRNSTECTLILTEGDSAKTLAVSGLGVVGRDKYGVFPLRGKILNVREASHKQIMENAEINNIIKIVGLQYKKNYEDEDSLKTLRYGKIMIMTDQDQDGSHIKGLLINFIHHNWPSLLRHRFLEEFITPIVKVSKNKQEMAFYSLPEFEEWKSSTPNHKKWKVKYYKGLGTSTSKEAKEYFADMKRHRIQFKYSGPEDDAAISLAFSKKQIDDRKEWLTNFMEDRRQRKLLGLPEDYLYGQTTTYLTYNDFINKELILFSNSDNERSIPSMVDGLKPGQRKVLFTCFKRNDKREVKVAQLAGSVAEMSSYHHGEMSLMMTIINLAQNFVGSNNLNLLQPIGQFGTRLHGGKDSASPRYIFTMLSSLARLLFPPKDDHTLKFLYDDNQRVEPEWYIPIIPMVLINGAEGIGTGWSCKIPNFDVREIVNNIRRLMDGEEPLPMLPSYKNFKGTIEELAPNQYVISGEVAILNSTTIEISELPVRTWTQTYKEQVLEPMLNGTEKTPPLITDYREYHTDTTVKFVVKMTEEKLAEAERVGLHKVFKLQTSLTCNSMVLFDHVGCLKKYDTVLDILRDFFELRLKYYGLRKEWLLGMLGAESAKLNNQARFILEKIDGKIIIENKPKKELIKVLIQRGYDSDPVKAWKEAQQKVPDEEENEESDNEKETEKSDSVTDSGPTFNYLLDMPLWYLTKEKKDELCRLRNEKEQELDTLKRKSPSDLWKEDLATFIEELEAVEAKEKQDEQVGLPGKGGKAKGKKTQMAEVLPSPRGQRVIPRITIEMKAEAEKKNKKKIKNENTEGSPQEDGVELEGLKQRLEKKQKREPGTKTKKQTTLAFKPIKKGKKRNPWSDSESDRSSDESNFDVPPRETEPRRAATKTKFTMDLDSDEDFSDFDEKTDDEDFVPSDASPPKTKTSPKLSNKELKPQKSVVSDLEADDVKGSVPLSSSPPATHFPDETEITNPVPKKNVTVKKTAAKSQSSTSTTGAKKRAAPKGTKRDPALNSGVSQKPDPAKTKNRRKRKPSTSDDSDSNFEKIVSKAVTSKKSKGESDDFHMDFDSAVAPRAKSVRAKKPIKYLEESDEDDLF

# Study 1 — mode: inhibitor
# Target: Replicase polyprotein 1ab, nsp14 (rep, Severe acute respiratory syndrome coronavirus 2, UniProt P0DTD1)
SMILES,IC50 [nM]
COc1ccccc1CNC(=O)c1cc(S(=O)(=O)N2CCCc3ccccc32)c(C)n1C,> 6250
COc1ccccc1CNC(=O)c1cc(S(=O)(=O)N2CCC(C)CC2)c(C)[nH]1,> 6250
Cc1c(S(=O)(=O)N2CCC(C)CC2)cc(C(=O)NCc2cccnc2N2CCCCC2)n1C,370
Cc1c(S(=O)(=O)N2CCc3c(cnn3C)C2)cc(C(=O)NCc2cccnc2N2CCCC2)n1C,17
COc1ccccc1CNC(=O)c1cc(S(=O)(=O)N2CCc3cc(Cl)ccc3C2)c(C)n1C,> 6250
COc1ccccc1CNC(=O)c1cc(S(=O)(=O)N2CCC(C)CC2)c(C)n1C,310
Cc1c(S(=O)(=O)N2CCC(C)CC2)cc(C(=O)NCc2cccnc2N2CCCC2)n1C,17
COc1ccccc1CNC(=O)c1cc(S(=O)(=O)N2CCc3ccccc3C2)c(C)n1C,7.2

# Study 2 — organism: Pseudomonas aeruginosa
# SMILES: CO/N=C(\C(=O)N[C@@H]1C(=O)N2C(C(=O)O)=C(COC(C)=O)CS[C@H]12)c1csc(N)n1
strain,MIC [µg/mL]
clinical isolate RKI-No_84/15,> 16
clinical isolate RKI-No_612/16,16
clinical isolate RKI-No_597/16,> 16
clinical isolate RKI-No_130/15,> 16
clinical isolate RKI-No_615/15,> 16
clinical isolate RKI-No_578/15,> 16
clinical isolate RKI-No_584/15,> 16
clinical isolate RKI-No_484/15,> 16

# Mixed results
SMILES,target or system,test,test system,conditions,quantity,value
CCn1c(=O)c(-c2cc(NC(=O)Nc3ccccc3)c(F)cc2Br)cc2cnc(NC)cc21,,refers to: injury and poisoning,"healthy, matched to mild impairment",50 mg single dose,patients with grade 3+ TEAE,0%
CCCc1nn(C)c2c(=O)[nH]c(-c3cc(S(=O)(=O)N4CCN(C)CC4)ccc3OCC)nc12,,,"human, plasma","oral, 100 mg, geometric mean, together with: vericiguat",AUC(0-22),1390 ng·h/mL
COc1cc([C@@H]2c3cc4c(cc3[C@@H](O[C@@H]3O[C@@H]5CO[C@@H](C)O[C@H]5[C@H](O)[C@H]3O)[C@H]3COC(=O)[C@H]23)OCO4)cc(OC)c1O,"TOP2A (Homo sapiens, UniProt P11388)",DNA cleavage,,"125 µM, replicate 2",linear DNA,23.2%
COC(=O)Nc1c(N)nc(-c2nn(Cc3ccccc3F)c3ncc(F)cc23)nc1N,,,"humans, plasma","oral, 10 mg single dose, phase I DDI study, alone",Cmax,245 ng/mL
CC1COc2ccccc2N1C(=O)C(Cl)Cl (centres unmarked),cytosolic carboxylesterase,substrate depletion,"rhesus monkey, male, liver cytosol","5 µM, pH 7.4, without glutathione",intrinsic clearance,500 µL/min/mg
Fc1ccccc1Cc1nc(-c2nc(C(F)(F)F)n[nH]2)cn2ccnc12,,refers to: Investigations,healthy humans,"oral, 10 mg, fasted, single dose",subjects with adverse events,7.1%
C[C@H]1O[C@@H](O[C@H]2[C@@H](O)C[C@H](O[C@H]3[C@@H](O)C[C@H](O[C@H]4CC[C@@]5(C)[C@H](CC[C@@H]6[C@@H]5C[C@@H](O)[C@]5(C)[C@@H](C7=CC(=O)OC7)CC[C@]65O)C4)O[C@@H]3C)O[C@@H]2C)C[C@H](O)[C@@H]1O,,,"human, plasma","dose not given, geometric mean, together with: vericiguat",Ctrough,0.687 ng/mL

# Excerpt of the above (mixed results):
SMILES,target or system,test,test system,conditions,quantity,value
CCn1c(=O)c(-c2cc(NC(=O)Nc3ccccc3)c(F)cc2Br)cc2cnc(NC)cc21,,refers to: injury and poisoning,"healthy, matched to mild impairment",50 mg single dose,patients with grade 3+ TEAE,0%
CCCc1nn(C)c2c(=O)[nH]c(-c3cc(S(=O)(=O)N4CCN(C)CC4)ccc3OCC)nc12,,,"human, plasma","oral, 100 mg, geometric mean, together with: vericiguat",AUC(0-22),1390 ng·h/mL
